Results gathered from unrelated publications.
Each line is one published result; not all experiments were run side by side. Several values in a cell are separate wells, animals, samples, runs or records. ± gives the spread as reported.
HTR4: 5-hydroxytryptamine receptor 4 (HTR4, Homo sapiens, UniProt Q13639)
Sequence of UniProt Q13639 (whole entry, looked up): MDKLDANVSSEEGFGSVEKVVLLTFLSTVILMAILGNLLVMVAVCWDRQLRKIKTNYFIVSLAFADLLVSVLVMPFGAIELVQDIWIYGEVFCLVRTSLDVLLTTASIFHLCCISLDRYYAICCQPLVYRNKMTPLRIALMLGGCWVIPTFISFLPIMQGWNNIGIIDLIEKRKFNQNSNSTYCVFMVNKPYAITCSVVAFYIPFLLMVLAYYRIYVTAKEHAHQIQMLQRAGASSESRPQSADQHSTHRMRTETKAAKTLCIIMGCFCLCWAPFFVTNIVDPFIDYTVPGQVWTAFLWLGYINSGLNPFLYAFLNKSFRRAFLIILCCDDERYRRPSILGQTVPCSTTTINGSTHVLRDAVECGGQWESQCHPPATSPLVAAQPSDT
HTR1A: 5-hydroxytryptamine receptor 1A (HTR1A, Homo sapiens, UniProt P08908)
DRD5: D(1B) dopamine receptor (DRD5, Homo sapiens, UniProt P21918)
Urease subunit alpha: Urease subunit alpha (Sporosarcina pasteurii, UniProt P41020)
Sequence of UniProt O35240 (whole entry, looked up): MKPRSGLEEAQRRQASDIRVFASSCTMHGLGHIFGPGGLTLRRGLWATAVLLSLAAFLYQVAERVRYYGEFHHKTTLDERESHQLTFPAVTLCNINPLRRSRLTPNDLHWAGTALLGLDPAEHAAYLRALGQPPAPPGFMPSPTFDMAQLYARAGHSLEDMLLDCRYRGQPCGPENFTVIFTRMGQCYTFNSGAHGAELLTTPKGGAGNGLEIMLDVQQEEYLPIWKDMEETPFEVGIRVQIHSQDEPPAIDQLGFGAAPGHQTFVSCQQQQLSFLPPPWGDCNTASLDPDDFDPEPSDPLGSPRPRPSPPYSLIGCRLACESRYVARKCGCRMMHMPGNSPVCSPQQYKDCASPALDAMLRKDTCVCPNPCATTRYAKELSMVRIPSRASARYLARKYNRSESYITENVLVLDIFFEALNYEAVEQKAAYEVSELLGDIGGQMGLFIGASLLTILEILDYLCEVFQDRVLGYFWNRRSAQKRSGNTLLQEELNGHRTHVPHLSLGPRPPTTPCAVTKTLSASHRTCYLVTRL
Sequence of UniProt P41020 (whole entry, looked up): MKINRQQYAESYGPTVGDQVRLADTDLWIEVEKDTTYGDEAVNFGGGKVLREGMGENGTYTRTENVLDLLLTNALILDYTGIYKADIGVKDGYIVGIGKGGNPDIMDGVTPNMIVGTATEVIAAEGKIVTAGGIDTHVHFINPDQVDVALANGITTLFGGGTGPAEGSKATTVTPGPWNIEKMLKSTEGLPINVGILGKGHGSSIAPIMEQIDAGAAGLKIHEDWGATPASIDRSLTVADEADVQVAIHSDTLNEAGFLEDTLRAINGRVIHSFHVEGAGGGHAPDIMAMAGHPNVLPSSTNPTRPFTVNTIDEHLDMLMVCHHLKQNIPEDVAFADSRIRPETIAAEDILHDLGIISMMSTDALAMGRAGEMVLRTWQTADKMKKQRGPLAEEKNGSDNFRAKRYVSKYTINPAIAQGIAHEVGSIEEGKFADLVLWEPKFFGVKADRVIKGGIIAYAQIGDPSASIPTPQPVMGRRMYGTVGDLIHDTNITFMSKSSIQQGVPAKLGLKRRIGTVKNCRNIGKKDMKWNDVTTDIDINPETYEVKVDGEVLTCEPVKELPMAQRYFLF
Sequence of UniProt Q16853 (whole entry, looked up): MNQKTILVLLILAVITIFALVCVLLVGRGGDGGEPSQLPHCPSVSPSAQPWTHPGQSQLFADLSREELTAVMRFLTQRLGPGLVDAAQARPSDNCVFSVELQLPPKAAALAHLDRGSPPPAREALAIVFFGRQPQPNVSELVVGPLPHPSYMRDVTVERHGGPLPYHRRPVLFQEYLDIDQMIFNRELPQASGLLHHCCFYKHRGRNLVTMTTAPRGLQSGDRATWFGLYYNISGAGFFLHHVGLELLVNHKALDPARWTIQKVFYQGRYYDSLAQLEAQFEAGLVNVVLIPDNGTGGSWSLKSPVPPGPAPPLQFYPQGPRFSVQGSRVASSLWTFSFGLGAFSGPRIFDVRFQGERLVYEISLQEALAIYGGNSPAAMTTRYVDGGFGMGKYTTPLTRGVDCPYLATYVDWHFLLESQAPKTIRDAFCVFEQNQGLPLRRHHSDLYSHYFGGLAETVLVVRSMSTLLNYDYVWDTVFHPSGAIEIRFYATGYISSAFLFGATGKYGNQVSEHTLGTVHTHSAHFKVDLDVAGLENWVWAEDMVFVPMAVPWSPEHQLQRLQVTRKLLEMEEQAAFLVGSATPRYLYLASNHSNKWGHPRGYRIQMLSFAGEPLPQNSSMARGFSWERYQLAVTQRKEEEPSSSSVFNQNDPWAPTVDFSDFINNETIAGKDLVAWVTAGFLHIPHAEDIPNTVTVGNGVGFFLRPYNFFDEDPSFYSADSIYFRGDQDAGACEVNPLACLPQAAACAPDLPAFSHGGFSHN
Sequence of UniProt Q08345 (whole entry, looked up): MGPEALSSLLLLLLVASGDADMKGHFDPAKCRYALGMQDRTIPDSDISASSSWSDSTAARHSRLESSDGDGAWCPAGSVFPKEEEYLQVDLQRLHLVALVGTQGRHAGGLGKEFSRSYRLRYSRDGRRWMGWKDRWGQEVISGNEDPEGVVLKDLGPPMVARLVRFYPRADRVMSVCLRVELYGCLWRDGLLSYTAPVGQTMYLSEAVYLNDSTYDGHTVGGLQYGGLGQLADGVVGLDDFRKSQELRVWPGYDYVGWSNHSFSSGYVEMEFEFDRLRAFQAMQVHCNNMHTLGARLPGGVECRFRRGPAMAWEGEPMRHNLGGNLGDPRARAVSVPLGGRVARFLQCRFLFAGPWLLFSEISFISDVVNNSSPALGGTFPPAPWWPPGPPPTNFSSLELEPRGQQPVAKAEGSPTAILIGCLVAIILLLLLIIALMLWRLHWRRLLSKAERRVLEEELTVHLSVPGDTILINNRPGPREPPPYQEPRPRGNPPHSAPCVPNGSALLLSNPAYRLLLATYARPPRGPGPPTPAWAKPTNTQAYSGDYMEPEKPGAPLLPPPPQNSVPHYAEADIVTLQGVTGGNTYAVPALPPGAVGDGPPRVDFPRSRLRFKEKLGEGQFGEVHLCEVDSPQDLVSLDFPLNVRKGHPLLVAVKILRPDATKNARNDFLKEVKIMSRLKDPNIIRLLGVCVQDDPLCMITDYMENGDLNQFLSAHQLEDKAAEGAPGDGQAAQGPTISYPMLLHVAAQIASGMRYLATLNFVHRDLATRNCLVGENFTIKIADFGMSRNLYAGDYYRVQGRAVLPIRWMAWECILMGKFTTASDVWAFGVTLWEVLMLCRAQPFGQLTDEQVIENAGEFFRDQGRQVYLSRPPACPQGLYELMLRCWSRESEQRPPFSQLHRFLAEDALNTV
Sequence of UniProt Q29495 (whole entry, looked up): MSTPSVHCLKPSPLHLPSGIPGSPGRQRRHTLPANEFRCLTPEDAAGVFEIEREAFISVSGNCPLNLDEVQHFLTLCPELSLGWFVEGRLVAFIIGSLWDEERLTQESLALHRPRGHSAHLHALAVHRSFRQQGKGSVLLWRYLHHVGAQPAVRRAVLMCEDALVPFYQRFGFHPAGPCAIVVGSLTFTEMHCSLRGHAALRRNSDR
Sequence of UniProt Q7RTT9 (whole entry, looked up): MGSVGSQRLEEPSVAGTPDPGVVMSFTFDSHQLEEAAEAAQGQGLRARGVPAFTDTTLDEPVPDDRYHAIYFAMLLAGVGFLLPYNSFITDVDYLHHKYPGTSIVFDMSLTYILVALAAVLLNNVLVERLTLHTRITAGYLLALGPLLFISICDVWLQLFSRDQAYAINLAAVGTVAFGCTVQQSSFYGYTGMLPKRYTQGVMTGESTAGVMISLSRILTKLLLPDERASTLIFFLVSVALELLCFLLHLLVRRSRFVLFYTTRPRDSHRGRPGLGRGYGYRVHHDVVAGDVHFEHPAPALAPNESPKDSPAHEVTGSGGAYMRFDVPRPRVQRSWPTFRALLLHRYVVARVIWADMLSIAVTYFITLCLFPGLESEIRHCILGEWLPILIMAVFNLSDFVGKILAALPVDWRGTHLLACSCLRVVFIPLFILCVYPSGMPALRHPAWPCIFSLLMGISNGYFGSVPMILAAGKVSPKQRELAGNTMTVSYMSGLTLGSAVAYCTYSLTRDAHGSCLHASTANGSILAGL
Sequence of UniProt P41279 (whole entry, looked up): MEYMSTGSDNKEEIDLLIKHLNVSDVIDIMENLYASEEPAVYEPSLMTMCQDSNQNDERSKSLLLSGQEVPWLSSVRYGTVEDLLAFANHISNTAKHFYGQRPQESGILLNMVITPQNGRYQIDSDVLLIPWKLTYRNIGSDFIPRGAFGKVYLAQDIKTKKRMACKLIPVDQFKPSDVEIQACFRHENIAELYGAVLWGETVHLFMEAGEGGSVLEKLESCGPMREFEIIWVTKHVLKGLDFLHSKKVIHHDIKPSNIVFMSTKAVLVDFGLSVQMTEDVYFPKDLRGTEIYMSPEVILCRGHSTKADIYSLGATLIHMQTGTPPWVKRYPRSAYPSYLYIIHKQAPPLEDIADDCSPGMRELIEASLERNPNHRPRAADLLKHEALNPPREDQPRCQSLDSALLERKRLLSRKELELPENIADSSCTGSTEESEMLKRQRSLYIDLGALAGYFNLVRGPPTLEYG
Sequence of UniProt Q9H3N8 (whole entry, looked up): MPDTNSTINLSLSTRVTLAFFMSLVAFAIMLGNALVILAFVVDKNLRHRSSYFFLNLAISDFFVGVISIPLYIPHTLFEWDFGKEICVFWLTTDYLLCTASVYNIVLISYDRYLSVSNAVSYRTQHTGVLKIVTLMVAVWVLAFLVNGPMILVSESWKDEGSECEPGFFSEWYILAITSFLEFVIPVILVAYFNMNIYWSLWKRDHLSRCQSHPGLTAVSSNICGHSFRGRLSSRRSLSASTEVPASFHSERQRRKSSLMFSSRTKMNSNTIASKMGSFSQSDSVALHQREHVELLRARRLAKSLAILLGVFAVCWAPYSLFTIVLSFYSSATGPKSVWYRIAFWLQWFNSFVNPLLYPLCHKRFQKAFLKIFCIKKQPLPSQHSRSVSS

`Clc1cccc(OC[C@@H]2CN(CCN3CCc4ccccc43)CCO2)c1` has an inhibition of 11.7% (HTR4; radioligand binding; concentration not given).
For `C[C@@H]1CCO[C@H]2Cn3cc(C(=O)NCc4ccc(F)cc4F)c(=O)c(O)c3C(=O)N12`, the inhibition was -4.75% (SLC29A4 (Homo sapiens, UniProt Q7RTT9); transport, inhibitor; MDCK-II PMAT-transfected; 10 µM, with: MPP+ 10 µM).
For `COc1c(O)c(C)cc2c1C(=O)c1c(ccc(O)c1O)C2=O`, the cell viability was 44.2 ± 2.65% (HepaRG co-cultured with HK-2; MTT; 33.33 µM, 48 h; reference: untreated control).
The inhibition of `O=C(Nc1cccc2c(=O)cc(-c3nnn[nH]3)oc12)c1ccc(OCCCCc2ccccc2)cc1` is reported as 92.7% and 89.8% and 80.8% and 92.1% (Volume-regulated anion channel subunit LRRC8C, part LRRC8A IL1 chimera (LRRC8C, Homo sapiens, UniProt Q8TDW0, L136K); ion current, inhibitor, whole-cell patch clamp; HCT LRRC8-/- cells; 3 µM, +100 mV).
`CCN(Cc1ccccc1C(F)(F)F)C(=O)C1CCN(S(=O)(=O)c2ccc3[nH]ncc3c2)CC1` gave an inhibition of 49% (rat sodium channel; radioligand binding; 10 µM, site 2).
`C=CCNC(=O)C#Cc1ccc(-c2cccs2)s1` — result for inhibition: “no inhibition” (Serotonin N-acetyltransferase (Ovis aries, UniProt Q29495); enzyme activity, inhibitor; 40 µM, up to tested concentration, with: acetyl-CoA).
With `c1ccc(OC[C@@H]2CN(CCN3CCc4ccccc43)CCO2)cc1` the inhibition was 79% (HTR1A; radioligand binding; concentration not given, with: [3H]8-OH-DPAT).
For `CC(C)C[C@H](NC(=O)C[C@H](O)[C@H](CC(C)C)NC(=O)[C@H](Cc1c[nH]cn1)NC(=O)CNC(=O)[C@@H](NC(=O)[C@H](C)NC(=O)[C@H](Cc1c[nH]c2ccccc12)NC(=O)[C@H](CCC(N)=O)NC(=O)[C@@H](Cc1ccccc1)NC(=O)COCCOCCNC(=O)CCC(C(=O)O)N1CCN(CC(=O)O)CCN(CC(=O)O)CCN(CC(=O)O)CC1)C(C)C)C(N)=O` (stereo partly shown) [lutetium-177 labelled], the tissue uptake was 0.15 ± 0.06 %ID/g (BALB/c nu/nu mice, heart; intravenous, 500 pmol, 1 h, with: PA 300 µg).
With `O=C(CN1CCO[C@H](COc2cccnc2)C1)N1CCc2ccccc21` the inhibition was 21.7% (HTR1A; radioligand binding; concentration not given, with: [3H]8-OH-DPAT).
The inhibition of `Cn1cc(-c2cnc3ccc(NC(=O)Nc4ccc(F)c(Br)c4)cc3n2)cn1` is reported as 1.2% (IKBKB (Homo sapiens, UniProt O14920); kinase binding, KiNativ profiling, refers to: Lys1 peptide; PANC-1 lysate; 1.25 µM).
With `OCCCN1CC[C@@H]2C[C@H]1c1cc(-c3ccc(C(F)(F)F)cc3)ccc12` the inhibition was under 50% (DRD5; radioligand binding, PDSP competition binding; 10 µM).
The inhibition of `[2H]c1cc(C)c(NC(=O)c2cnc(Nc3cc(N4CCCCC4)nc(C)n3)s2)c(Cl)c1` is reported as 30 to 90% (DDR1 (Homo sapiens, UniProt Q08345); 0.01 µM).
With `COc1cc2c(c(O)c1OC)C(=O)c1c(cc(C)c(O)c1OC)C2=O` the cell viability was 36.9 ± 1.32% (HepaRG co-cultured with HK-2; MTT; 266.67 µM, 48 h; reference: untreated control).
With `Cc1ccc(C(=O)Nc2ccc3ccccc3c2)o1` the inhibition was 8.18% and 7.64% and 20% and 4.41% and 6.13% (Asic3 (Rattus norvegicus, UniProt O35240); ion current, inhibitor, whole-cell patch clamp; 10 µM).
For `c1cncc(OC[C@@H]2CN(CCN3CCc4ccccc43)CCO2)c1`, the inhibition was 8.8% (HTR4; radioligand binding; concentration not given).
`Cc1cc(-c2ccnc3[nH]cc(F)c23)cc(F)c1[C@@]1(O)[C@H](C)CN(C2CCS(=O)(=O)CC2)C[C@@H]1C` gave an inhibition of 28% (AKT1 and AKT3; ATP probe binding, KiNativ, refers to: Lys1 site; HEK293T cell lysate; 10 µM).
`COc1ccc(F)cc1C(=O)NCc1ccc(-c2nn([C@@H](C)C(F)(F)F)c(N)c2C(N)=O)cc1` gave an inhibition of 3.8% (MAP2K1 (Homo sapiens, UniProt Q02750); target engagement, competitive chemoproteomics; human PBMCs; 1 µM).
`CC(C)c1ccc(NC(=S)N/N=C/C=C/c2ccc(F)cc2)cc1` has an inhibition of 81.9% (Urease subunit alpha; enzyme activity, indophenol method; 500 µM).
`COc1cc(C(=O)NS(=O)(=O)c2ccccc2C)ccc1Cc1cn(C)c2ccc(NC(=O)OC3CCCC3)cc12` has an inhibition of 30.2% and 42.3% and 57.9% and 26% and 32.6% (Volume-regulated anion channel subunit LRRC8C, part LRRC8A IL1 chimera (LRRC8C, Homo sapiens, UniProt Q8TDW0, C43G/S11C); ion current, inhibitor, whole-cell patch clamp; HCT LRRC8-/- cells; 10 µM, +100 mV).
The inhibition of `O=C(CN1CCO[C@H](COc2cccc(Cl)c2)C1)N1CCc2ccccc21` is reported as 15% (HTR4; radioligand binding; concentration not given).
`Cc1cc(-c2ccnc3[nH]cc(F)c23)cc(F)c1[C@@]1(O)[C@H](C)CN(C(=O)CN)C[C@@H]1C` gave an inhibition of 7.9% (AKT1 and AKT3; ATP probe binding, KiNativ, refers to: Lys2 site; HEK293T cell lysate; 0.1 µM).
`NC/C(=C\F)COc1cccc(Cn2c(=S)[nH]c(=O)c3[nH]cnc32)c1` has an inhibition of 100% (AOC3 (Homo sapiens, UniProt Q16853); H2O2 production, Amplex Red; 3.333 µM, recombinant human enzyme).
The inhibition of `O=C1c2ccccc2CCN1CCCCN1CCN(c2ccccn2)CC1` is reported as 101% (HTR1A; radioligand binding; concentration not given, with: [3H]8-OH-DPAT).
For `COc1ccc(-c2ccc3c(N4CCOC[C@@H]4C)nc(N4CCOC[C@@H]4C)nc3n2)cc1COC(=O)CCOCCOCCOCCONC(=O)c1ccc(F)c(F)c1Nc1ccc(I)cc1F`, inhibition read “inhibited” (MAP3K8 (Homo sapiens, UniProt P41279); enzyme activity; 2.5 µM).
The inhibition of `Cc1nn(-c2nc3c(F)cc(F)cc3s2)c(O)c1C(c1cccc(C(F)(F)F)c1)c1c(C)nn(-c2nc3c(F)cc(F)cc3s2)c1O` is reported as 29.8% (Cyclic GMP-AMP synthase, catalytic domain; with DNA (CGAS, Homo sapiens, UniProt Q8N884); cGAS phase separation, inhibitor; 1.563 µM).
`Cc1cc2c(cc1N1C(=O)c3cccc4c(CCCO)ccc(c34)C1=O)n(C)c(=O)n2C` (racemic) gave an inhibition of 0% (BRD1 (Homo sapiens, UniProt O95696); binding, BROMOscan binding; 100 nM).
For `C[C@H]1c2nn(C)cc2[C@H]2C[C@@H]1N(Cc1ccccc1)C[C@]2(C)O`, the inhibition was 22% (Mu-type opioid receptor (Cavia porcellus, UniProt A0ACM8Q262); binding; guinea pig brain; 1 µM, with: [3H]DAMGO).
With `CN(C)C(=O)CCc1nc(-c2ccccc2)c(-c2ccccc2)o1` the necrosis was 0.86 ± 0.1 (COS-7; 100 µM, 24 h, 0.1% DMSO, unit not given; reference: control).
For `CC[C@@H]1[C@H](F)C(=O)N[C@@H]1COc1nccc2cc(C(N)=O)c(OC)cc12`, the inhibition was -6.2% (CDK14 (Homo sapiens, UniProt O94921); ATP probe binding, KiNativ profiling, refers to: Lys1 probe site; THP-1 cell lysate; 0.01 mM).
For `Cc1ccc(OC[C@@H]2CN(CCN3CCc4ccccc43)CCO2)cn1`, the inhibition was -2.7% (DRD5; radioligand binding; concentration not given, with: [3H]SCH23390).
For `O=c1ccc2ccc(O)c(Cn3ncc4ccccc43)c2o1`, the inhibition was under 0% (MAL12 (Saccharomyces cerevisiae S288c, UniProt P53341); inhibitor; 25 µM).
`Cc1ccnc(C)c1OC[C@H]1CN(CCN2CCc3ccccc32)CCO1` has an inhibition of 48.6% (HTR4; radioligand binding; concentration not given).
`CCN1CCN(c2cc(N3CCN(CC)CC3)nc(NCCNc3ccnc4cc(Cl)ccc34)n2)CC1` has a metabolic activity of 0.2 ± 0.11 (COS-7; WST-8; 30 µM, 24 h, 0.1% DMSO, unit not given; reference: vehicle control).
The inhibition of `CCc1ccc(NC(=S)N/N=C/C=C/c2ccc(F)cc2)cc1` is reported as 84.2% (Urease subunit alpha; enzyme activity, indophenol method; 500 µM).
For `CN(C(=O)n1cnc(-c2ccc[n+]([O-])c2)c1)C1CCCCC1`, the inhibition was -5.2% (HTR4; 10 µM).
The inhibition of `COc1c(C#N)ccnc1N1C2CCC1CN(C(=O)c1cccnc1-n1cccn1)C2` is reported as 7.4% (sodium channel site 2; binding; 10 µM).
For `O=C(NO)c1ccc(CN2CCCCc3ccccc32)c(F)c1`, the inhibition was 2.79% (HRH4 (Homo sapiens, UniProt Q9H3N8); radioligand binding, radioligand displacement; 10 µM).

Some of these lines once more:
With `COc1cc2c(c(O)c1OC)C(=O)c1c(cc(C)c(O)c1OC)C2=O` the cell viability was 36.9 ± 1.32% (HepaRG co-cultured with HK-2; MTT; 266.67 µM, 48 h; reference: untreated control).
With `Cc1ccc(C(=O)Nc2ccc3ccccc3c2)o1` the inhibition was 8.18% and 7.64% and 20% and 4.41% and 6.13% (Asic3 (Rattus norvegicus, UniProt O35240); ion current, inhibitor, whole-cell patch clamp; 10 µM).
For `c1cncc(OC[C@@H]2CN(CCN3CCc4ccccc43)CCO2)c1`, the inhibition was 8.8% (HTR4; radioligand binding; concentration not given).
`Cc1cc(-c2ccnc3[nH]cc(F)c23)cc(F)c1[C@@]1(O)[C@H](C)CN(C2CCS(=O)(=O)CC2)C[C@@H]1C` gave an inhibition of 28% (AKT1 and AKT3; ATP probe binding, KiNativ, refers to: Lys1 site; HEK293T cell lysate; 10 µM).
`COc1ccc(F)cc1C(=O)NCc1ccc(-c2nn([C@@H](C)C(F)(F)F)c(N)c2C(N)=O)cc1` gave an inhibition of 3.8% (MAP2K1 (Homo sapiens, UniProt Q02750); target engagement, competitive chemoproteomics; human PBMCs; 1 µM).
`CC(C)c1ccc(NC(=S)N/N=C/C=C/c2ccc(F)cc2)cc1` has an inhibition of 81.9% (Urease subunit alpha; enzyme activity, indophenol method; 500 µM).
